{"data": "Measurements of several laboratories", "ACHE": "Acetylcholinesterase (ACHE, Homo sapiens, UniProt P22303)", "Neuronal acetylcholine receptor; alpha9/alpha10": "Neuronal acetylcholine receptor; alpha9/alpha10 (Homo sapiens, UniProt Q9GZZ6+Q9UGM1)", "SLC6A4": "Sodium-dependent serotonin transporter (SLC6A4, Homo sapiens, UniProt P31645)", "KCNQ1 with KCNE1": "Potassium voltage-gated channel subfamily KQT member 1, with KCNE1 (KCNQ1, Homo sapiens, UniProt P51787)", "cas9": "CRISPR-associated endonuclease Cas9/Csn1 (cas9, Streptococcus pyogenes serotype M1, UniProt Q99ZW2)", "HLA class I histocompatibility antigen, B alpha chain allele B*18:01": "HLA class I histocompatibility antigen, B alpha chain, allele B*18:01 (Homo sapiens, UniProt P01889)", "note": "Compare with care: the assays were run in different laboratories. ± gives the spread as reported."}
{"Structure (SMILES)": "CCCCCCCCCCCCCC(=O)O[C@@H]1[C@@H](C)[C@@]2(O)[C@@H](C=C(CO)C[C@]3(O)C(=O)C(C)=C[C@@H]23)[C@@H]2C(C)(C)[C@]12OC(C)=O", "target": "phorbol ester receptor, mouse", "assay": "radioligand binding", "IC50 [µM]": 0.00069}
{"Structure (SMILES)": "S=C=NCCc1ccccc1", "target": "Cytochrome P450 2E1 (CYP2E1, Homo sapiens, UniProt P05181)", "assay": "enzyme activity, inhibitor", "conditions": "30 min, pH 7.4", "IC50 [µM]": 1.2}
{"Structure (SMILES)": "COc1cc(C(=O)N2CC[C@@H](O)[C@@H](N)C2)cc2nc(-c3cc4ccccc4n3CC3CC3)n(C)c12", "target": "5-hydroxytryptamine receptor 2A (HTR2A, Homo sapiens, UniProt P28223)", "assay": "intracellular calcium, antagonist, luminescence", "IC50 [µM]": 12.6}
{"Structure (SMILES)": "COc1ccc(S(=O)(=O)Oc2ccc3c(c2)Oc2nc4c(c(N)c2C3c2ccccc2OC)CCCC4)cc1 (stereo not shown)", "target": "ACHE", "assay": "enzyme activity, inhibitor", "IC50 [µM]": 5.17}
{"Structure (SMILES)": "CCN1CCN(Cc2ccc(Nc3nc4cnc(Oc5ccnc(NC(C)=O)c5)nc4n3C)cc2C(F)(F)F)CC1", "target": "Protein kinase 6 (Plasmodium falciparum, UniProt Q8IDW1)", "assay": "enzyme activity, inhibitor", "IC50 [µM]": "1.7 ± 0.6"}
{"Structure (SMILES)": "CCC(CC)CSc1ccccc1OC(=O)NC", "target": "Acetylcholinesterase (Rhipicephalus microplus, UniProt O45210, W384F)", "IC50 [µM]": 0.023}
{"Structure (SMILES)": "CC(C)(C)NC(=O)N[C@H](C(=O)N1C[C@H]2[C@@H]([C@H]1C(=O)NC(CC1CCC1)C(=O)C(N)=O)C2(C)C)C(C)(C)C (stereo partly shown)", "target": "Chymase (CMA1, Homo sapiens, UniProt P23946)", "assay": "enzyme activity, inhibitor", "conditions": "added: FP-biotin 1 µM", "IC50 [µM]": 4.52}
{"Structure (SMILES)": "CC[C@H](C)[C@H](NC(=O)[C@@H](NC(=O)[C@@H](NC(=O)[C@H](CC(=O)O)NC(=O)[C@H](CC(=O)O)NC(=O)CNC(=O)[C@@H](N)Cc1ccccc1)[C@@H](C)O)C(C)C)C(=O)N[C@@H](CCC(=O)O)C(=O)N[C@H](C(=O)O)C(C)C", "target": "HLA class I histocompatibility antigen, B alpha chain (Homo sapiens, UniProt P01889)", "assay": "peptide-MHC binding, radioligand competition binding", "IC50 [µM]": "> 70"}
{"Structure (SMILES)": "Nc1ccn([C@@H]2O[C@H](COP(=O)(O)OP(=O)(O)OP(=O)(O)O)[C@@H](O)[C@H]2O)c(=O)n1", "target": "pyrG (Escherichia coli, UniProt P0A7E5, C268A)", "assay": "enzyme activity", "conditions": "added: 6.0 mM glutamine, 1.0 mM ATP, 0.05 mM UTP", "IC50 [µM]": "131 ± 20"}
{"Structure (SMILES)": "CNCC[C@@H](Oc1ccccc1C)c1ccccc1", "target": "Neuronal acetylcholine receptor; alpha9/alpha10", "assay": "inhibitor", "IC50 [µM]": "6.1 ± 2.2"}
{"Structure (SMILES)": "CC(=O)N1C[C@H](CCN2CC=C(c3c[nH]c4cc(Cl)ccc34)CC2)c2ccccc21", "target": "SLC6A4", "assay": "inhibitor", "IC50 [µM]": 1.81}
{"Structure (SMILES)": "C[C@H]1CN(c2n[nH]c3nc(N[C@H]4CC[C@H](NS(=O)(=O)CCC(F)(F)F)CC4)ncc23)CCO1", "target": "Transportin-1 (TNPO1, Homo sapiens, UniProt Q92973)", "assay": "biochemical", "IC50 [µM]": "≥ 20"}
{"Structure (SMILES)": "CNC(C)Cc1ccc2nsnc2c1 (stereo not shown)", "target": "SLC6A4", "IC50 [µM]": "6.4 ± 1"}
{"Structure (SMILES)": "O=c1c2cc(Cl)ccc2[nH]c(=S)n1Cc1cccnc1", "target": "KCNQ1 with KCNE1", "assay": "KCNQ1/minK current, inhibitor, manual patch clamp", "test system": "CHO cells", "IC50 [µM]": 0.36}
{"Structure (SMILES)": "CO[C@H]1C[C@H](O[C@@H]2/C(C)=C/C[C@@H]3C[C@@H](C[C@]4(CC[C@H](C)[C@@H](C5CCCCC5)O4)O3)OC(=O)[C@@H]3C=C(C)/C(=N/O)[C@H]4OC/C(=C\\C=C\\[C@@H]2C)[C@]43O)O[C@@H](C)[C@@H]1O", "target": "Bile acid receptor (NR1H4, Homo sapiens, UniProt Q96RI1)", "assay": "biochemical", "IC50 [µM]": "0.94 ± 0.11"}
{"Structure (SMILES)": "C#C[C@]1(O)CC[C@H]2[C@@H]3CCC4=Cc5oncc5C[C@]4(C)[C@H]3CC[C@@]21C", "target": "Gag polyprotein, nucleocapsid protein p7 (gag, Human immunodeficiency virus type 1 group M subtype B, UniProt P04591)", "assay": "NCp7-RNA binding, AlphaScreen", "test system": "HIV-1", "conditions": "added: 25 nM NCp7, 12.5 nM RNA", "IC50 [µM]": 1.19}
{"Structure (SMILES)": "N.N.[Cl][Pt][Cl]", "target": "cas9", "assay": "circular plasmid substrate", "test system": "Streptococcus pyogenes", "IC50 [µM]": "100 to 200"}
{"Structure (SMILES)": "COc1cc(Nc2ncc(F)c(Nc3ccc4c(n3)NC(=O)C(C)(C)O4)n2)cc(OC)c1OC", "target": "Tissue-type plasminogen activator (PLAT, Homo sapiens, UniProt P00750)", "assay": "enzyme activity, inhibitor", "IC50 [µM]": "> 10"}
{"Structure (SMILES)": "CC1(C)[C@@H](O[C@H]2O[C@H](C(=O)O)[C@@H](O)[C@H](O)[C@H]2O[C@@H]2O[C@H](C(=O)O)[C@@H](O)[C@H](O)[C@H]2O)CC[C@]2(C)[C@H]3C(=O)C=C4[C@@H]5C[C@@](C)(C(=O)O)CC[C@]5(C)CC[C@@]4(C)[C@]3(C)CC[C@@H]12", "target": "cas9", "assay": "linear substrate", "test system": "Streptococcus pyogenes", "IC50 [µM]": "50 to 100"}
{"Structure (SMILES)": "O=c1[nH]cnc2c([C@@H]3N[C@H](CO)[C@@H](O)[C@H]3O)c[nH]c12", "target": "uncharacterized protein (Trichomonas vaginalis, UniProt A2EYV3)", "assay": "inhibitor", "IC50 [µM]": 11}
{"Structure (SMILES)": "Cc1cc2c(C(C)C)c(O)c(O)c(C=O)c2c(O)c1-c1c(C)cc2c(C(C)C)c(O)c(O)c(C=O)c2c1O", "target": "cas9", "assay": "circular plasmid substrate", "test system": "Streptococcus pyogenes", "IC50 [µM]": "50 to 100"}
{"Structure (SMILES)": "CN(C)CCC=C1c2ccccc2COc2ccccc21", "target": "Neuronal acetylcholine receptor; alpha9/alpha10", "assay": "inhibitor", "IC50 [µM]": "0.13 ± 0.05"}
{"Structure (SMILES)": "CC[C@H](C)[C@H](NC(=O)[C@@H]1CCCN1C(=O)[C@@H](NC(=O)[C@H](CC(C)C)NC(=O)[C@H](CCC(N)=O)NC(=O)[C@H](Cc1ccccc1)NC(=O)[C@H](C)NC(=O)[C@@H](N)CCCCN)[C@@H](C)O)C(=O)N[C@@H](C)C(=O)N[C@H](C(=O)O)C(C)C", "target": "HLA class I histocompatibility antigen, B alpha chain allele B*18:01", "assay": "peptide-MHC binding, radioligand competition binding", "IC50 [µM]": 3.87}
{"Structure (SMILES)": "COc1ccccc1C1c2ccc(O)cc2Oc2nc3c(c(N)c21)CCCC3 (stereo not shown)", "target": "ACHE", "assay": "enzyme activity, inhibitor", "IC50 [µM]": 5.88}
{"Structure (SMILES)": "CC(C)[C@H](NC(=O)[C@H](C)NC(=O)[C@@H](N)Cc1ccccc1)C(=O)N[C@@H](CC(=O)O)C(=O)N[C@@H](C)C(=O)N[C@@H](C)C(=O)N[C@@H](CCCCN)C(=O)N[C@@H](C)C(=O)N[C@@H](Cc1ccc(O)cc1)C(=O)O", "target": "HLA class I histocompatibility antigen, B alpha chain allele B*18:01", "assay": "peptide-MHC binding, radioligand competition binding", "IC50 [µM]": 35.9}
{"Structure (SMILES)": "COc1cccc2c1C(=O)c1c(O)c3c(c(O)c1C2=O)C[C@@](O)(C(=O)CO)C[C@@H]3O[C@H]1C[C@H](N)[C@@H](O)[C@H](C)O1", "target": "cas9", "assay": "linear substrate", "test system": "Streptococcus pyogenes", "IC50 [µM]": "2 to 5"}
{"Structure (SMILES)": "COc1ccccc1C1c2ccc(OCC(=O)c3ccccc3)cc2Oc2nc3c(c(N)c21)CCCC3 (stereo not shown)", "target": "ACHE", "assay": "enzyme activity, inhibitor", "IC50 [µM]": 2.49}
{"Structure (SMILES)": "C[C@H]1COCCN1c1nc(NCc2cccnc2C(F)(F)F)c2cccnc2n1", "target": "KCNQ1 with KCNE1", "assay": "inhibitor", "IC50 [µM]": "> 33"}
